Measurements from different studies.
Each line is one published result; not all experiments were run side by side. ± marks the error that the study gave.

Compound | target or system | assay | test system | setting | how to read | endpoint | result
CCS(=O)(=O)Nc1ccc(Oc2ccc(F)cc2F)c(-c2cn(C)c(=O)c3[nH]ccc23)c1 | – | fatal multiple organ dysfunction syndrome | human, relapsed/refractory AML | oral, dose not given | – | treatment-emergent adverse events | 5%
C=CC(=O)Nc1cc(Nc2nccc(Nc3cc(Cl)c(F)cc3C(C)(C)O)n2)c(OC)cc1N1CC[C@@H](N(C)C)C1 | – | – | human patients | oral, 50 mg, treatment-emergent adverse events | – | patients with fatigue | 33.3%
O=S(=O)(F)Oc1cc(C(F)(F)F)cc(C(F)(F)F)c1 | – | chemical stability, HPLC-MS | borate buffered saline | pH 10.2, no N-acetyl-lysine | – | degradation rate constant | 0.1 h⁻¹
COc1ccc2c(c[n+](C)c3c4cc5c(cc4ccc23)OCO5)c1OC | – | LC-MS/MS | rat, plasma | dose not given | – | AUC(0-inf) | 74300 ng·h/mL
C=CC(=O)N1CC[C@H](n2nc(C#Cc3cc(OC)cc(OC)c3)c3c(N)ncnc32)C1 | – | – | patients with advanced solid tumours | oral, dose not given, Nausea, any grade, QD, with: phosphate-binding therapy | – | adverse drug reaction incidence | 17.5%
[O-][S+]1CCc2nc(N3CCC(c4ncc(Cl)cn4)CC3)nc(NC3(CO)CCC3)c21 (stereo not shown) | – | phase I trial, item: frequent bowel movements | idiopathic pulmonary fibrosis patients | 18 mg twice daily | – | subjects with adverse events | 10%
COc1ccc(-c2c(-c3ccc(C#N)c(F)c3)nc(N3CCC(N)CC3)n(C)c2=O)cc1F | – | item: Cystitis | human patients | oral, dose not given, dose escalation, NG | – | serious adverse event incidence | 2%
C[C@@H]1OC(=O)NN=C1c1ccc(-c2ccc(F)cc2)c(C(F)(F)F)c1 | – | phase I trial, item: Fatigue worst grade 1 | human patients | dose not given, all dose groups | – | patients with adverse event | 60%
O=c1cc(-c2ccc(O)c(O)c2)oc2cc(O)cc(O)c12 | – | – | Sprague-Dawley rat, male, obese, faeces | oral, 100 mg/kg neohesperidin, 48 h | reference: dose | faecal recovery | 0.01 ± 0.01%
CCN1CCN(c2cc(C)c3cc(NC(=O)c4cccc(Cl)c4)ccc3n2)CC1 | Vero-E6 | CellTiter-Glo ATP | – | concentration not given, 72 h, first round 5-point | reference: DMSO 0%, hyamine -100%, more negative, more toxic | cytotoxicity efficacy | 0%
O=C(O)CCCOc1ccc(F)cc1-c1cc(-c2ccccc2C(F)(F)F)n(-c2ccccc2)n1 | – | – | male Crl:CD(SD) rats, kidneys | intravenous, 25 µg/kg, 14 d | – | organ weight | 3.1 ± 0.26 g
O=[N+]([O-])c1ccc2c(c1)S(=O)(=O)C=C2 | – | – | male C57BL/6 mice, blood | intraperitoneal, 10 mg/kg, day 8, group average | – | mean corpuscular volume | 52.8 fL
COc1ccnc(C(=O)N[C@H]2COC(=O)[C@H](Cc3ccccc3)[C@@H](OC(=O)C(C)C)[C@H](C)OC2=O)c1OCOC(=O)C(C)C | – | – | rat | oral, 2 years, thyroid effects | – | LOAEL | 101 mg/kg bw/day
Cc1ccc2ccccc2c1 | – | – | pooled human liver microsomes | 2.5 µM, pH 7.4 | – | metabolism rate | 637 pmol/min/mg
CC(C)C[C@H](NC(=O)[C@H](CCCCN)NC(=O)OCC1c2ccccc2-c2ccccc21)C(=O)N[C@H](C(=O)N[C@@H](Cc1ccccc1)C(=O)N[C@@H](Cc1ccccc1)C(=O)N[C@@H](CCCCN)C(=O)NCC(=O)N[C@@H](Cc1ccccc1)C(=O)N[C@@H](C)C(=O)N[C@@H](Cc1c[nH]c2ccccc12)C(=O)N[C@@H](CC(N)=O)C(=O)N[C@H](C(=O)N[C@H]1CSSC[C@@H](C(=O)N[C@@H](Cc2c[nH]cn2)C(=O)N[C@@H](CCCNC(=N)N)C(=O)N[C@@H](CCCNC(=N)N)C(=O)N[C@@H](C)C(=O)N[C@@H](CC(N)=O)C(N)=O)NC(=O)[C@H](C(C)C)NC(=O)[C@H](CCCNC(=N)N)NC(=O)[C@H](C(C)C)NC(=O)CNC(=O)[C@H](CC(N)=O)NC(=O)[C@H](CCCNC(=N)N)NC(=O)[C@H](Cc2ccc(O)cc2)NC(=O)[C@H](C(C)C)NC1=O)C(C)C)C(C)C | – | – | mouse mammary gland homogenate 50 mg/mL | 2.00 h, 37 °C | – | peptide remaining | 86.1%
CCc1ccc(CC/C=C/c2ccc3c(c2)C(=O)CC3)cc1 | – | – | Sprague-Dawley rat, male | oral, 450 mg/kg/day, 14 days | – | TC | 1.83 mM
CN1CC[C@@H](c2c(O)cc(O)c3c(=O)cc(-c4ccc(C(F)(F)F)cc4Cl)oc23)[C@@H]1CO | – | item: Anorexia | AML | oral, 100 mg, intermittent dosing | – | patients with adverse event | 0%
CCC[C@@](N)(CO)CCc1ccc(OCCCCCC(C)C)cc1 | – | – | dog | oral, 10 mg/kg | – | half-life | 31 h
O=c1nc(NO)ccn1[C@@H]1O[C@H](CO)[C@@H](O)[C@H]1O | – | – | rat fetus dialysate | 25 ng/mL, more than 4 weeks, -20 °C, low concentration, with: molnupiravir 5 ng/mL | – | long-term stability | 97.5 ± 3.81%
CC(=O)c1c(C)c2cnc(Nc3ccc(C4CCN(CCS(C)(=O)=O)CC4)cn3)nc2n(C2CCCC2)c1=O | – | – | human, plasma | oral, 75 mg, day 1 single dose | – | MRT | 13.8 h

Compound | target or system | assay | test system | setting | how to read | endpoint | result
O=C(Nc1ccccc1)C1CCN(C(=O)Oc2cccnc2)CC1 | – | psychotropic effects VAS | healthy women | 60 mg | reference: pre-dose baseline, direction not given | change in Reality score | 1.6
COc1ccc2nc3cc(Cl)ccc3c(Nc3cc(CN4CCCC4)c(O)c(CN4CCCC4)c3)c2n1 | – | – | mouse, blood | intraperitoneal, 57 mg/kg | – | basophils | 0.8%
C[C@]1(CO)Cc2ncn(-c3ccc(C#N)c(Cl)c3)c2C(=O)O1 | – | – | healthy humans | concentration not given, food-effect part total | – | drug-related Dizziness incidence | 0%
O=C1Nc2cc3[nH]nc(-c4ccncc4)c3cc2CN1Cc1ccccc1 | – | CTCAE v4.03 | advanced solid tumour patients | intravenous, 4.8 mg/kg, schedules 1/2 | – | patients with constipation | 0%
Cn1c(-c2ccc(C(N)=O)cc2F)nnc1C(C)(C)Oc1c(F)cc(Cl)cc1F | – | – | human | oral, 3 mg, single ascending dose | – | gastrointestinal disorder TEAE | 0%
CC[C@H](C)[C@H](NC(=O)[C@H](CC(C)C)NC(=O)[C@H](Cc1c[nH]c2ccccc12)NC(=O)[C@H](CCC(N)=O)NC(=O)[C@@H](NC(=O)[C@H](Cc1ccccc1)NC(=O)[C@H](C)NC(=O)[C@H](CCCCNC(=O)COCCOCCNC(=O)COCCOCCNC(=O)CC[C@H](NC(=O)CCCCCCCCCCCCCCCCCCC(=O)O)C(=O)O)NC(=O)[C@H](CCC(N)=O)NC(=O)[C@H](C)NC(=O)[C@@H](NC(=O)[C@H](CCCCN)NC(=O)[C@H](CC(=O)O)NC(=O)[C@H](CC(C)C)NC(=O)C(C)(C)NC(=O)[C@@H](NC(=O)[C@H](CO)NC(=O)[C@H](Cc1ccc(O)cc1)NC(=O)[C@H](CC(=O)O)NC(=O)[C@H](CO)NC(=O)[C@@H](NC(=O)[C@H](Cc1ccccc1)NC(=O)[C@@H](NC(=O)CNC(=O)[C@H](CCC(=O)O)NC(=O)C(C)(C)NC(=O)[C@@H](N)Cc1ccc(O)cc1)[C@@H](C)O)[C@@H](C)O)[C@@H](C)CC)[C@@H](C)CC)C(C)C)C(=O)N[C@@H](C)C(=O)NCC(=O)NCC(=O)N1CCC[C@H]1C(=O)N[C@@H](CO)C(=O)N[C@@H](CO)C(=O)NCC(=O)N[C@@H](C)C(=O)N1CCC[C@H]1C(=O)N1CCC[C@H]1C(=O)N1CCC[C@H]1C(=O)N[C@@H](CO)C(N)=O | – | – | human, plasma | subcutaneous, 5 mg group, week 8, geometric mean | reference: peak over trough concentration | peak-to-trough ratio | 2.14
O=C1c2c(O)c(=O)ccn2N([C@@H]2c3ccccc3SCc3c2ccc(F)c3F)[C@@H]2COCCN12 | – | – | BALB/c mice, plasma | oral, 5 mg/kg baloxavir marboxil, 10 h | – | plasma concentration | 5.89 ng/mL
O=C1CC[C@H](N2Cc3cc(N4CCN(CC5CCN(c6ccc([C@@H]7c8ccc(O)cc8CC[C@@H]7c7ccccc7)cc6)CC5)CC4)ccc3C2=O)C(=O)N1 | – | – | healthy human | oral, dose not given, single doses without rosuvastatin | – | tolerability | not toxic
CCN1CCN(Cc2ccc(Nc3ncc(F)c(-c4cc(F)c5nc6n(c5c4)[C@H](C)CCC6)n3)nc2)CC1 | – | – | advanced solid tumour patients | dose not given, Phase Ia monotherapy | – | Thrombocytopenia incidence, any grade | 25%
O=S(=O)(Nc1ccccc1)c1ccc(NC(=S)Nc2ccccc2)cc1 | – | item: BUN | female mouse, blood | oral, 80 mg/kg daily, 14 days | – | blood chemistry level | 16.5 mg/dL
O=[N+]([O-])NC1=NCCN1Cc1ccc(Cl)nc1 | – | ultrafiltration | cow milk whey | 20 nM nominal in whole milk | – | final permeate concentration | 16.2 nM
CCCCN(C)CCCNC(=O)c1ccc2nc(N3CCCCC3)sc2c1 | Vero-E6 | CellTiter-Glo ATP | – | concentration not given, 72 h, second round 5-point | reference: DMSO 0%, hyamine -100%, more negative, more toxic | cytotoxicity efficacy | 0%
CO[C@H]1C[C@@H]2CC[C@@H](C)[C@@](O)(O2)C(=O)C(=O)N2CCCC[C@H]2C(=O)O[C@H]([C@H](C)C[C@@H]2CC[C@@H](OC(=O)NCCOCCOCCOCCOCCOCCOCCOCCOCCC(=O)N3CCc4cc(Cn5nc(-c6ccc7oc(N)nc7c6)c6c(N)ncnc65)ccc4C3)[C@H](OC)C2)C[C@@H](O)[C@H](C)/C=C(\C)[C@@H](O)[C@@H](OC)C(=O)[C@H](C)C[C@H](C)/C=C/C=C/C=C/1C | – | – | patients with advanced solid tumours | intravenous, 1.6 mg/3 mg weekly, any grade | – | incidence of Nausea TRAE | 0%
C1=Cc2nc1cc1ccc([n-]1)c(C1CC1)c1nc(cc3ccc([n-]3)c2C2CC2)C=C1.CC(=O)[O-].[Mn+3] | – | LC-MS/MS | Sprague-Dawley rat, plasma | oral gavage, dose not given, 30 min, individual rat Rat2 | – | plasma concentration | 85 ng/mL
CCN1[C@@H](C(=O)NC23CCC(C(=O)O)(CC2)CC3)[C@H](c2cccc(Cl)c2F)[C@]2(C(=O)Nc3cc(Cl)ccc32)C12CCCCC2 | – | – | patients with advanced solid tumours | oral, dose not given, all doses | – | any-grade thrombocytopenia incidence | 52.4%
COc1ncccc1-c1cnn2ccc(N3CCN(C(=O)OC(C)C)CC3)nc12 | – | – | mouse, SNL model, plasma | oral, 10 mg/kg, 30 min | – | drug concentration | 3.6 µM
[2H]C([2H])([18F])[C@]([2H])(N)C(=O)O | – | radio-HPLC | saline formulation | up to 3 h | – | radiochemical purity | > 98%
COc1cc2c(Oc3ccc4[nH]c(C)cc4c3F)ccnc2cc1OCC1(N)CC1 | – | – | paediatric recurrent refractory sarcoma | concentration not given, whole group | – | grade 1 or 2 AST elevation | 26.5%
CC1(C)[C@H](C=C(Cl)Cl)[C@H]1C(=O)OCc1cccc(Oc2ccccc2)c1 | – | item: CYP2C19 | human, age 1 year, recombinant human CYP2C19 | 0.1 µM | – | enzyme contribution to clearance | 0.28%
COc1ccc(C[C@@H]2NC(=O)[C@H]([C@@H](C)O)NC(=O)[C@@H]3[C@@H]4CCN3C(=O)[C@@H]3Cc5cn(c6ccc(F)cc56)CCCCCCN(Cc5ccc(cc5)CCNC(=O)[C@]5(C)CCCN5C2=O)C(=O)CCC(=O)N[C@@H](C)C(=O)N[C@H](CNC(=O)CCCCC[N+](C)(C)C)C(=O)N[C@@H](Cc2cccc(c2)CNC(=O)CO4)C(=O)N3)cc1 | – | item: Hyperhidrosis | humans | concentration not given, Study-003 | – | participants with adverse event | 3.2%

A few entries again:
Compound | target or system | assay | test system | setting | how to read | endpoint | result
CC[C@H](C)[C@H](NC(=O)[C@H](CC(C)C)NC(=O)[C@H](Cc1c[nH]c2ccccc12)NC(=O)[C@H](CCC(N)=O)NC(=O)[C@@H](NC(=O)[C@H](Cc1ccccc1)NC(=O)[C@H](C)NC(=O)[C@H](CCCCNC(=O)COCCOCCNC(=O)COCCOCCNC(=O)CC[C@H](NC(=O)CCCCCCCCCCCCCCCCCCC(=O)O)C(=O)O)NC(=O)[C@H](CCC(N)=O)NC(=O)[C@H](C)NC(=O)[C@@H](NC(=O)[C@H](CCCCN)NC(=O)[C@H](CC(=O)O)NC(=O)[C@H](CC(C)C)NC(=O)C(C)(C)NC(=O)[C@@H](NC(=O)[C@H](CO)NC(=O)[C@H](Cc1ccc(O)cc1)NC(=O)[C@H](CC(=O)O)NC(=O)[C@H](CO)NC(=O)[C@@H](NC(=O)[C@H](Cc1ccccc1)NC(=O)[C@@H](NC(=O)CNC(=O)[C@H](CCC(=O)O)NC(=O)C(C)(C)NC(=O)[C@@H](N)Cc1ccc(O)cc1)[C@@H](C)O)[C@@H](C)O)[C@@H](C)CC)[C@@H](C)CC)C(C)C)C(=O)N[C@@H](C)C(=O)NCC(=O)NCC(=O)N1CCC[C@H]1C(=O)N[C@@H](CO)C(=O)N[C@@H](CO)C(=O)NCC(=O)N[C@@H](C)C(=O)N1CCC[C@H]1C(=O)N1CCC[C@H]1C(=O)N1CCC[C@H]1C(=O)N[C@@H](CO)C(N)=O | – | – | human, plasma | subcutaneous, 5 mg group, week 8, geometric mean | reference: peak over trough concentration | peak-to-trough ratio | 2.14
O=C(Nc1ccccc1)C1CCN(C(=O)Oc2cccnc2)CC1 | – | psychotropic effects VAS | healthy women | 60 mg | reference: pre-dose baseline, direction not given | change in Reality score | 1.6
CC(=O)c1c(C)c2cnc(Nc3ccc(C4CCN(CCS(C)(=O)=O)CC4)cn3)nc2n(C2CCCC2)c1=O | – | – | human, plasma | oral, 75 mg, day 1 single dose | – | MRT | 13.8 h
C[C@@H]1OC(=O)NN=C1c1ccc(-c2ccc(F)cc2)c(C(F)(F)F)c1 | – | phase I trial, item: Fatigue worst grade 1 | human patients | dose not given, all dose groups | – | patients with adverse event | 60%
C=CC(=O)N1CC[C@H](n2nc(C#Cc3cc(OC)cc(OC)c3)c3c(N)ncnc32)C1 | – | – | patients with advanced solid tumours | oral, dose not given, Nausea, any grade, QD, with: phosphate-binding therapy | – | adverse drug reaction incidence | 17.5%
